Values quoted from earlier work that unrelated publications cite.
Several values in a cell are separate wells, animals, samples, runs or records. Numbers after ± are the reported error.
B1: CCL1; sequence looked up; chain KSMQVPFSRCCFSFAEQEIPLRAILCYRNTSSICSNEGLIFKLKRGKEACALDTVGWVQRHRKMLRHCPSKRK
Chain of UniProt P45481 (340-439, looked up): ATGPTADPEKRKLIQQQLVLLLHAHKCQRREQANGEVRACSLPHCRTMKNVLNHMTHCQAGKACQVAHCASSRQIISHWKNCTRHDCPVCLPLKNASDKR

fibrinogen  bond lifetime (integrin αIIbβ3; laser trap; zero force): ~15 s
LLSAAHFR  retention coefficient S (isocratic RP-HPLC, C18 column; peptide, water/acetonitrile, 0.1% TFA; 25 °C): 19.9
AVIA  IC50 (PC-12; Aβ42-induced toxicity, inhibitor, LDH release; peptide; together with: Aβ42): 22 ± 5 µM
MMKIRNTLRSRKEAVRRIFSLRRRSVF  MIC (Bacillus subtilis; peptide): 0.4 µM
AIVV  IC50 (PC-12; Aβ42-induced toxicity, inhibitor, LDH release; peptide; together with: Aβ42): 22 ± 3 µM
HIF1A fragment (Homo sapiens)  Kd (CBP residues 340-439 (Mus musculus, UniProt P45481); fluorescence anisotropy): 0.01 µM and 0.0074 µM
RWIKIQLQIRRWKNKK  MIC (Staphylococcus aureus; peptide, methicillin-resistant): 93.8 µg/mL
ifinatamab deruxtecan  partial response (patients with advanced solid tumours; dose not given): 21%
VAIA  IC50 (PC-12; Aβ42-induced toxicity, inhibitor, MTT; peptide; together with: Aβ42): 15 ± 3 µM
B1 (CCL1)  EC50 (CCR8 S289A mutant; IP accumulation, agonist): 0.018 µM
coproporphyrin I  AUC fold increase (OATP1B1; monkey; dose not given, together with: rifampicin; reference: without rifampicin): 2.7 fold
LLLGGDFR  retention coefficient S (isocratic RP-HPLC, C18 column; peptide, water/acetonitrile, 0.1% TFA; 25 °C): 16.8
MVGGVVIA  viability (PC-12, differentiated; MTT; peptide; 10-fold excess over Aβ42, together with: Aβ42 5 µM; reference: untreated): 82 ± 4%
teicoplanin  Cmax (healthy human subjects; intravenous, dose not given): 59 µM
MRNFFKTRLRKYGGKKELLKKSRAFGLKTKKRSGSFFPRRLAYKEEFY  MIC (Escherichia coli; peptide): > 100 µM
RGDSPA  dissociation rate constant (integrin αIIbβ3; AFM dynamic force spectroscopy; peptide): ~1.5 s⁻¹
YRAAMLRRQYMMT  MIC (Escherichia coli; peptide): > 1000 µg/mL
insulin (human)  membrane level (BBB cells; outcome: increased, refers to: LRP-1 and RAGE; concentration not given): increased
indirubin-3'-monoxime  IC50 (HUVEC; ATP level, CellTiter-Glo): 8.7 µM
MAIRIIGRLARVRARVVARVRSRLLADDPPEDLLRVARRKGRRWFLFLS  MIC (Bacillus subtilis; peptide): 1.6 µM
pegcetacoplan  Cmax (cynomolgus monkey; 7 mg/kg, NOAEL dose, arithmetic mean): 931 µg/mL
VGGVVIA  viability (PC-12, differentiated; MTT; peptide; 10-fold excess over Aβ42, together with: Aβ42 5 µM; reference: untreated): 80 ± 3%

Some of these lines once more:
fibrinogen  bond lifetime (integrin αIIbβ3; laser trap; zero force): ~15 s
LLSAAHFR  retention coefficient S (isocratic RP-HPLC, C18 column; peptide, water/acetonitrile, 0.1% TFA; 25 °C): 19.9
